Experimental data from different studies.
Every numbered part comes from another study and shows a few of its results, in no order. Positions count from the first letter of the parent shown.

Set 1
Target: ATF2, bZIP domain (human)
Method: DHFR protein complementation
Matrix: yeast
Notes: single substitutions, most at no-binding floor
Relative to: wild-type JUN-FOS pair
Direction: higher = stronger binding
Quantity: binding fitness
Parent: JUN, bZIP domain (human); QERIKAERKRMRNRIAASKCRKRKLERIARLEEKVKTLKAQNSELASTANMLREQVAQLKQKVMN; partner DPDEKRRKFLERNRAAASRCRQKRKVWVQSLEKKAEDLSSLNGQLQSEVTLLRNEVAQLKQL
E32M: -1.38 natural log
E54W: -1.47 natural log
S47H: -1.38 natural log
E32D: -1.41 natural log
S43H: -1.2 natural log
S47F: -1.38 natural log
E32H: -1.41 natural log
Q41D: -1.49 natural log
E44C: -1.47 natural log
T37Q: -1.29 natural log
T48G: -1.49 natural log
E54I: -1.44 natural log
R53M: -1.45 natural log
Q41P: -1.44 natural log
N42C: -1.4 natural log
R53V: -1.46 natural log
E32T: -1.36 natural log
I28W: -1.49 natural log
A46I: -1.41 natural log
A49E: -1.29 natural log
S47R: -1.24 natural log
A57K: -1.32 natural log
V35K: -1.49 natural log
T37C: -1.33 natural log
L31C: -1.49 natural log

Set 2
Target: CCND3, cyclin fold, Cln2 fusion (human)
Method: yeast growth competition, sequencing
Matrix: yeast
Notes: weak parent motif
Relative to: not given
Direction: higher = stronger binding
Quantity: normalised enrichment score
Parent: PKMYT1 docking peptide (human); SFEPRNLLSLFED; partner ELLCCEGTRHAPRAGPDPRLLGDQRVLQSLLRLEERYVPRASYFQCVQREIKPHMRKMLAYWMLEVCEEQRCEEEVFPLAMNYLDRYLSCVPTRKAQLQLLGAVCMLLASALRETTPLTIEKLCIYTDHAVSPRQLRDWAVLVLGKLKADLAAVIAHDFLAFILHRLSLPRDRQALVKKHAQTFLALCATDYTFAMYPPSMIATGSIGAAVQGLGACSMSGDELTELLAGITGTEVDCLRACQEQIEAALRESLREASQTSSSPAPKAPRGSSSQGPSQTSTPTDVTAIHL
EFEPRNLLSLFED [S1E]: 0.0116
SFEPRVLLSLFED [N6V]: 0.1
SFEPRNLLSLFEE [D13E]: 0.0916
LFEPRNLLSLFED [S1L]: 0.126
SEEPRNLLSLFED [F2E]: 0.0391
SFEPRNLLSLFER [D13R]: 0.0719
AFEPRNLLSLFED [S1A]: 0.0892
SFEPRNLLSLFHD [E12H]: 0.0907
SFEPGNLLSLFED [R5G]: 0.154
SFEPRNQLSLFED [L7Q]: 0.0288
SFEPRNLLALFED [S9A]: 0.0935
SFEPRNLLSLDED [F11D]: 0.0909
SFEPRNLVSLFED [L8V]: 0.0472
CFEPRNLLSLFED [S1C]: 0.0833
SFEPRNLLSLFES [D13S]: 0.132
NFEPRNLLSLFED [S1N]: 0.0537
YFEPRNLLSLFED [S1Y]: -0.0529
SFEPRNCLSLFED [L7C]: 0.121
SFEPRLLLSLFED [N6L]: 0.0744
SFETRNLLSLFED [P4T]: 0.115
SFKPRNLLSLFED [E3K]: 0.101
SFEPPNLLSLFED [R5P]: 0.05
SFEPRNLLSLFTD [E12T]: 0.0339
SFGPRNLLSLFED [E3G]: 0.0321
SFEPRALLSLFED [N6A]: 0.0682

Set 3
Target: Ras GTPase-activating protein-binding protein 1, C-terminal RGG region (G3BP1, Homo sapiens, UniProt Q13283)
Chain of UniProt Q13283 (whole entry, looked up): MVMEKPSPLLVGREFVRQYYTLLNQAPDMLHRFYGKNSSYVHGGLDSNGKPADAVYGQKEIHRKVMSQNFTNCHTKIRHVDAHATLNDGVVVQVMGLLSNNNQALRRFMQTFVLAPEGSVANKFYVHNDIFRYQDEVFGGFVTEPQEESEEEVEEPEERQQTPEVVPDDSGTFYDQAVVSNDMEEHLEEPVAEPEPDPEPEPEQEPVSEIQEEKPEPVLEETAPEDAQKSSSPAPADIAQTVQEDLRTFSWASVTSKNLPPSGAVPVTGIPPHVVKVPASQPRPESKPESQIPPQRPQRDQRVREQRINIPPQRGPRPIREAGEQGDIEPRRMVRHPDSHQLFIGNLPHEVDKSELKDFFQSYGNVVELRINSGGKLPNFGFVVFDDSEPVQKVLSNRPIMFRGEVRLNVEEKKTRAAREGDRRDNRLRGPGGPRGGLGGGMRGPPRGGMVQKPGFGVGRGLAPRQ
Method: RNA Bind-n-Seq
Form: RNA
Matrix: in vitro
Concentration: 1 µM
Notes: whole 134-nt RNA, ends assumed
Together with: 150 mM KCl
Relative to: input library
Direction: higher = stronger binding
Quantity: log2 enrichment
All sequences stand within: GGGAGUUCUACAGUCCGACGAUC … UGGAAUUCUCGGGUGUCAAGG
ACCAUGCAGGUUGGCAUCUUUGGGAAGUGGGGCAAGGGGGGGAUAGGGAGGGGGGUAACACUUUGGGAACAGGUGGUCCCAGGUCGUUUC: -1.3
UGGCCCUGGUGGCAUGCGGGGAGGAAGAGGUGGCCUCAUGGAUCGUGGUGGUCCCGGUGGAAUGUUCUGAGGUGGCCGUGGUGGAGACAG: 3.64
UGGCCCUGGUGGCAUGCGGGGAGGAAGAGGUGGCCUCAUGGAUCGUGGUGGUCCCGGUGGAAUGUUCAGAGGUGGCCGUGGUGAAGACAG: 3.15
GUCCUGUGCUACACAUCGUAUGUACCGAAUCGGGGCCCCCGGCCCCCGGGCCCCCGGGAAAGUAUUAUGUUACGCCGUUCGGAUCUGCAC: -1.48
UCAAGUCCUGUGCUACACAUCGUAUGUACCGAAUCGGUUUUUGGUGGUUUUUGGAAAGUAUUAUGUUACGCCGUUCGGAUCUGCACUUCC: -1.09
ACCAUGCAGGUGGGCAUCUUUGGGAAGUGGGGCAAGGGGGGGAUAGGGUGGGGGGUAACACUUUGGGAACAGGUGGUCCCAGGUCGUUUC: 2.02
GUCCUGUGCUACACAUCGUAUGUACCGAAUCGGAAAAAAAGGUUUUUUUGGUUUUUGGAAAGUAUUAUGUUACGCCGUUCGGAUCUGCAC: -2.17
UGCUGGAGGCAAAAAAUGCCAGCCUGGCGUCGUCCAACAACGACUUGCAGGUGGCCGAGGAGCAGUACCAGAGGCUUAUGGCCAAGGUAG: -2.57
CACAGACAACACGCACCCACACAGACACAGAGGGAAGGGGUUGGGAUGGGGACAGGGUGCACAGCAGGGCGGGGUAGGACACCAGCCCCU: -1.03
GUCCUGUGCUACACAUCGUAUGUACCGAAUCGGGAAAAAGGAAAAAGGGGAAAAAGGGAAAGUAUUAUGUUACGCCGUUCGGAUCUGCAC: -1.08
ACCAUGCAGGUGGGCAUCUUUGGGAAGUGGGGCAAGGGGGGGAUAGGGAGGGGGGUAACAAAAUGGGAACAGGUGGUCCCAGGUCGUUUC: -1.41
UCAAGUCCUGUGCUACACAUCGUAUGUACCGAAUCGGGGAAAGGGAAAGGAAAGGAAAGUAUUAUGUUACGCCGUUCGGAUCUGCACUUC: -1.7
GAUGAUUACUAUGGUUAUGAUUAUCACGACUAUCGUGGAGGCUAUGAAGAUCCCUACUACGGCUAUGAUGAUGGCUAUGCAGUAAGAGGA: -2.02
UAACUUUAGAGGAGGAUCUGAUGGAUAUGGCAGUGGACGUGGAUUUGGAGAUGGCUAUAAUGGGUAUGGAGGAGGACCUGGAGGUGGCAA: -0.522

Set 4
Target: Centromere-binding protein 1, full length, His-tagged (CBF1, Saccharomyces cerevisiae, UniProt P17106, residues 1-351)
Chain of UniProt P17106 (whole entry, looked up): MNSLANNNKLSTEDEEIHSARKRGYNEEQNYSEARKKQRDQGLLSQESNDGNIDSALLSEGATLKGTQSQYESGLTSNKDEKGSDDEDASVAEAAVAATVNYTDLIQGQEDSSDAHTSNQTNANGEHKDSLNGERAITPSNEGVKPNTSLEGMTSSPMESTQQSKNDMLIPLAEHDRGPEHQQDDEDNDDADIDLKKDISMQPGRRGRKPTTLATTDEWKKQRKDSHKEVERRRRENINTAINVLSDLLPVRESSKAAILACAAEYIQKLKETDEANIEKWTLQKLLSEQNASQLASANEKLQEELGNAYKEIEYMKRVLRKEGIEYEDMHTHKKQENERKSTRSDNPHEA
Method: competition protein-binding microarray
Form: double-stranded DNA, one strand shown
Matrix: in vitro
Concentration: 2 µM
Notes: whole 60-bp probe, lowest competitor level
Together with: Pho4 competitor, 0.05 µM
Direction: higher = stronger binding
Quantity: fluorescence intensity
All sequences stand within: … GTCTTGATTCGCTTGACGCTGCTG
CGTTGGATCTAGTTCCACGTGGCCGAGCTTCAAGCC: 596 a.u.
AAAGCGGTAATTTGTAATGTGGGTGCAGATATCTAT: 77.2 a.u.
CATACCCAACCTTGTCCAGTGGGTGAAGATATTTGT: 69.2 a.u.
GTCTTGTCTCATTGGATCGTGGGTGTCCCCACTTCA: 81.6 a.u.
AAATTACTAAGTTGGCACGTGGGTGACGCCGTATGA: 1160 a.u.
CTGCATGGTACTGCTCATATGACAACTCCCACCCAG: 78.6 a.u.
CGGGGTTAAGTTTGAGACGTGGGTGGCTTGCAGCAG: 77.1 a.u.
CCGTAGAGGCTTTTGCCCGTGCTTTGAGACAACTGC: 70.8 a.u.
TCTTCTTGCGAGGCGCTCGTGGTCGAGCCGTTCGTA: 67.2 a.u.
CTTTCCCGATCTTGTCACCCGACTTTAGCACATTTG: 76.5 a.u.
CGTCCTAGTGATTGGCCGGTGGGTGCCATGAGGAAG: 72.7 a.u.
CTAACGAAGGTTTGAACCGTGGGTGACAAGCCAAGT: 59.2 a.u.
CTAACGAAGGTTTGGTAGGTGGGTGACAAGCCAAGT: 57.8 a.u.
TCATACATGTCATTGCACATGAGCATTGTAACCGGT: 117 a.u.
AAAGTATTTTACTGGCACGATGCATCCATGGGACTA: 82.9 a.u.
AAAAAAATACATAGTAGCATGACAAACTAATAATAA: 103 a.u.
CTAACGAAGGTTTGGTCAGTGGGTGACAAGCCAAGT: 71.5 a.u.
CTCTTTGAATGCTGTCACCTGTTACTGTGAAGACCA: 238 a.u.
AAAGCGGTAATTTGGACGGTGGGTGCAGATATCTAT: 73 a.u.
CGGGGTTAAGTTTCACACGTGTTTTGCTTGCAGCAG: 678 a.u.
CATACCCAACCTTGTTATGTGGGTGAAGATATTTGT: 74.5 a.u.
GTCTTAATAGAAGGACACGTGGAATCTAAGGACGGA: 944 a.u.
CGTCCTAGTGATTGGGTGGTGGGTGCCATGAGGAAG: 80.2 a.u.
CGTCCTAGTGATTGTCACTCCACTTCCATGAGGAAG: 91 a.u.

Set 5
Target: Histone acetyltransferase KAT6A, both winged helices, GST fusion (KAT6A, Homo sapiens, UniProt Q92794, residues 1-181)
Method: protein binding microarray
Form: double-stranded DNA, one strand shown
Matrix: in vitro
Concentration: not given
Notes: 8-mer, flanks averaged, mean of 2 arrays, mostly near background
Relative to: not given
Direction: higher = stronger binding
Quantity: E-score
Target sequence (chain): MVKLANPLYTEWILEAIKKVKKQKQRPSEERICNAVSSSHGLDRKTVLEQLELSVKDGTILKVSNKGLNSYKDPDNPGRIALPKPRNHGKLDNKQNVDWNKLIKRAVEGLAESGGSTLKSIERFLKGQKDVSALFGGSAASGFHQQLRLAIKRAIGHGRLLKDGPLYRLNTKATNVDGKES
AACTAGTA: -0.0369
ACGTTGAC: -0.085
AACCGGTC: 0.147
ACACCCTA: -0.102
CCCTTTCG: -0.0194
CAGAGGAC: -0.103
AACTTATG: -0.187
GAATTACC: 0.0471
ACCTTGCG: 0.0862
ATTGCGAG: 0.117
AAGAGGAG: -0.142
CATAGCTC: -0.0824
ACGGACCC: 0.139
AAGTAACC: -0.129
ACGTTAAT: 0.0185
GTCCGATA: 0.0751
ATACCCCA: -0.183
GGAGCCAA: -0.147
CCCTGAGG: -0.126
GTTGGAGA: -0.107
